Assay results gathered from unrelated publications.
Parts stem from different laboratories: compare values within a part only.

Sample 1
Target: Prothrombin, mature alpha-thrombin (F2, Homo sapiens, UniProt P00734)
Method: aptamer microarray, sandwich
Molecule type: DNA with 2'F-ANA
Matrix: in vitro
Concentration: 200 nM
Notes: whole 15-mer aptamer, many near background
Added: Cy3 exosite-II aptamer, 400 nM
Direction: higher = stronger binding
Sequence: GGTTGGTGTGGTTGG
| Modification | mean fluorescence intensity [a.u.] |
| --- | --- |
| 2'F-ANA at 3 4 5 6 8 9 12 13 14 15 | 49.6 |
| 2'F-ANA at 1 2 3 4 7 9 10 12 | 75.2 |
| 2'F-ANA at 1 4 5 7 8 9 10 11 13 | 47.5 |
| 2'F-ANA at 1 2 3 4 13 14 15 | 59.2 |
| 2'F-ANA at 2 3 5 6 10 12 13 14 15 | 76 |
| 2'F-ANA at 2 3 4 7 10 11 | 261 |
| 2'F-ANA at 1 2 4 5 6 9 10 12 | 186 |
| 2'F-ANA at 4 5 7 9 11 12 13 | 80.5 |

Sample 2
Target: Histone acetyltransferase KAT6A, both winged helices, GST fusion (KAT6A, Homo sapiens, UniProt Q92794, residues 1-181)
Method: protein binding microarray
Molecule type: double-stranded DNA, one strand shown
Matrix: in vitro
Concentration: not given
Notes: 8-mer, flanks averaged, mean of 2 arrays, mostly near background
Relative to: not given
Direction: higher = stronger binding
Residues (chain): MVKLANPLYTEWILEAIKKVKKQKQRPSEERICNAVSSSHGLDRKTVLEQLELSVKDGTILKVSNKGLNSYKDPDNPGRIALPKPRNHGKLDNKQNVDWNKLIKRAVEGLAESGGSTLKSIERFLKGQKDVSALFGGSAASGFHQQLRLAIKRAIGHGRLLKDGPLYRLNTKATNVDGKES
| Sequence | E-score |
| --- | --- |
| ATCTCCCA | -0.0934 |
| GCCTTCAC | 0.0992 |
| TGATTCCA | -0.12 |
| CCTACTGC | -0.138 |
| CTAATGGC | -0.0719 |
| CAAAAGGG | -0.106 |

Sample 3
Target: Interferon regulatory factor 7, full length, phosphomimetic (IRF7, Homo sapiens, UniProt Q92985, residues 1-503, S471D/S472D/S475D/S476D/S477D/S483D/S484D/S487D)
Method: protein-binding microarray
Molecule type: double-stranded DNA, one strand shown
Matrix: in vitro
Concentration: 2200 nM top
Notes: 60-bp whole probe
Added: salmon DNA 0.4 mg/ml
Relative to: random background probes
Direction: higher = stronger binding
Shared flanks, not repeated: GCCTAGCAC … GTCTTGATTCGCTTGACGCTGCTG
Residues (chain): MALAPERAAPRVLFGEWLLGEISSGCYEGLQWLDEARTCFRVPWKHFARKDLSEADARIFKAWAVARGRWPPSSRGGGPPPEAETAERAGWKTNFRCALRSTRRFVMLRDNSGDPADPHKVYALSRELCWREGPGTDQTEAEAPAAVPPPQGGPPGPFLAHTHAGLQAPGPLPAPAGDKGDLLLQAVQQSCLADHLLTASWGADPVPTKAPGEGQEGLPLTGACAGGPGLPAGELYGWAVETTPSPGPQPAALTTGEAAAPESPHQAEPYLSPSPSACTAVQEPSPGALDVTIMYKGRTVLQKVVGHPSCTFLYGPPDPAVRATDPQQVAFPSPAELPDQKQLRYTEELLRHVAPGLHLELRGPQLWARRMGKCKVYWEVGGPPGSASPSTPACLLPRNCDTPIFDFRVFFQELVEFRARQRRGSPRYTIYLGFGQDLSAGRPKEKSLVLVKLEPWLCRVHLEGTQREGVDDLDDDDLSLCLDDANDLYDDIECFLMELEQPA
| Sequence | fitted relative affinity [z-score] |
| --- | --- |
| TTAGATTTCGGGTTTCAATTAGTGCTA | 4.29 |
| CCTTTTATGGTATTTTTTTCGTGCTAG | 2.21 |
| TTAGATTTCAGGTTCGATTAGTGCTAG | 2.01 |
| TTCGGTTTCGGTCTCGGTTAGTGCTAG | 8.6 |
| GTCGGACTGCTTTTCCTGACGTGCTAG | 1.16 |
| GACGGTCTCCTTATCATGACGTGCTAG | 1.11 |
| TTGGGTATCGGTATCGGTTAGTGCTAG | 0.972 |

Single results of other studies
| Substance | target | assay | test system | setting | how to read | endpoint | result |
| --- | --- | --- | --- | --- | --- | --- | --- |
| PhoQ, residues 284 288 289 292 302 303 SACGEM | PhoP, residues 12 14 15 18 19 IQSYL (Escherichia coli, UniProt P23836) | Sort-seq, item: YFP reporter | E. coli | PhoQ-PhoP variant library, added: 10 µM Mg2+ | relative to: high Mg2+ state, higher = stronger signaling | fold induction | 14.6 |

Some of these lines once more (sample 2):
| Sequence | E-score |
| --- | --- |
| CCTACTGC | -0.138 |
